Published values collected from several papers.
Protocols differ between the studies behind these lines. Values joined by “and” are separate records of one study, mostly repeats; a detail may differ. ± gives the spread as reported.

Structure (SMILES) = O=C(C[Se]C(=O)c1cccs1)Nc1cccc(C(F)(F)F)c1; cell line = NCI60 breast subpanel; assay = NCI60 five-dose screen; quantity = GI50; value = 1.93 µM
Structure (SMILES) = Cc1cc(Oc2nc(N3CC[C@@H](c4ccncc4)C3)ncc2F)[nH]n1; cell line = HL-60; assay = cell proliferation; test system = blood cancer; quantity = IC50; value = 31.6 µM
Structure (SMILES) = CC[C@H](C)[C@H](NC(=O)[C@H](C)NC(=O)CNC(=O)[C@H](Cc1ccccc1)NC(=O)[C@H](CC(N)=O)NC(=O)[C@H](CC(N)=O)NC(=O)[C@H](CO)NC(=O)[C@H](CO)NC(=O)[C@H](Cc1c[nH]cn1)NC(=O)[C@@H](NC(=O)[C@H](CC(C)C)NC(=O)[C@H](Cc1ccccc1)NC(=O)[C@H](CC(N)=O)NC(=O)[C@H](C)NC(=O)[C@H](CC(C)C)NC(=O)[C@H](CCCNC(=N)N)NC(=O)[C@H](CCC(N)=O)NC(=O)[C@@H](NC(=O)[C@H](C)NC(=O)[C@@H]1CSSC[C@H](NC(=O)[C@@H](N)CCCCN)C(=O)N[C@@H](CC(N)=O)C(=O)N[C@@H]([C@@H](C)O)C(=O)N[C@@H](C)C(=O)N[C@@H]([C@@H](C)O)C(=O)N1)[C@@H](C)O)C(C)C)C(=O)N[C@@H](CC(C)C)C(=O)N[C@@H](CO)C(=O)N[C@@H](CO)C(=O)N[C@H](C(=O)N[C@@H](CC(N)=O)C(=O)N[C@H](C(=O)NCC(=O)N[C@@H](CO)C(=O)N[C@@H](CC(N)=O)C(=O)N[C@H](C(=O)N[C@@H](Cc1ccc(O)cc1)C(N)=O)[C@@H](C)O)C(C)C)[C@@H](C)O; cell line = RIN-m5F; assay = measured: GM130 Golgi marker; conditions = 10 µM, 24 h; quantity = Pearson coefficient; value = < 0.3
Structure (SMILES) = CSCC[C@H](NC(=O)[C@@H](NC(=O)[C@H](CCC(N)=O)NC(=O)[C@H](CO)NC(=O)[C@@H](N)C(C)C)[C@@H](C)O)C(=O)N[C@@H](CCCNC(=N)N)C(=O)N[C@@H](CCC(N)=O)C(=O)N[C@H](C(=O)N[C@@H](C)C(=O)N[C@H](C(=O)N1CCC[C@H]1C(=O)N[C@@H](CC(C)C)C(=O)N[C@@H](CC(C)C)C(=O)N[C@@H](Cc1c[nH]c2ccccc12)C(=O)N[C@@H](Cc1ccccc1)C(=O)N[C@@H](Cc1c[nH]c2ccccc12)C(=O)N[C@H](C(=O)NCC(=O)N[C@@H](CO)C(=O)N[C@@H](CC(C)C)C(=O)NCCOCCOCCOCCOCCOCCOCCOCCOCCOCCOCCOCCOCCC(=O)N[C@@H](CS)C(N)=O)[C@@H](C)O)C(C)C)[C@@H](C)O; cell line = HCC827; assay = phage binding; how to read = baseline: targeting over control phage; quantity = selectivity ratio; value = 1.9 ± 0.66
Structure (SMILES) = Cc1ccc(C(C)C)cc1.Cc1ccc(C(C)C)cc1.Cc1ccc(C(C)C)cc1.Cc1ccc(C(C)C)cc1.O=S(=O)(O)C(F)(F)F.O=S(=O)(O)C(F)(F)F.O=S(=O)(O)C(F)(F)F.O=S(=O)(O)C(F)(F)F.c1ccc2c3c4ccccc4c(c2c1)-c1cn(nn1)-c1cc[n+](cc1)[Ru-]1[O]c2ccc4c5c(ccc(c25)=[O+]1)=[O+][Ru-]([O]4)[n+]1ccc(cc1)-n1cc(nn1)-c1c2ccccc2c(c2ccccc12)-c1cn(nn1)-c1cc[n+](cc1)[Ru-]1[O]c2ccc4c5c(ccc(c25)=[O+]1)=[O+][Ru-]([O]4)[n+]1ccc(cc1)-n1cc-3nn1; cell line = HepG2; assay = cell growth, MTT; conditions = 24 h, 20 µM preincubated in medium 48 h at 37 °C; quantity = IC50; value = 6.9 ± 0.2 µM
Structure (SMILES) = COc1ccc2c(c1)c(CC(=O)[Se]CC(=O)Nc1cccc(C(F)(F)F)c1)c(C)n2C(=O)c1ccc(Cl)cc1; cell line = NCI60 CNS subpanel; assay = NCI60 five-dose screen; quantity = CC50; value = 6.56 µM
Structure (SMILES) = O=C1C=CC(=O)c2ccccc21; cell line = HepG2; assay = MTT; how to read = baseline: IC50 MRC-5 over IC50 HepG2; quantity = selectivity index; value = 1.14
Structure (SMILES) = COc1ccccc1-c1ccncc1C(=O)Nc1nnc(OCc2ccc(Cl)cc2)s1; cell line = DLD-1 BRCA2-/-; conditions = 1 µM, single replicate; how to read = baseline: untreated; quantity = colony survival; value = 33.3% and 35.3% and 47.9%
Structure (SMILES) = O=C(C[Se]C(=O)c1ccccc1)Nc1cccc(C(F)(F)F)c1; cell line = NCI60 breast subpanel; assay = NCI60 five-dose screen; quantity = GI50; value = 2.58 µM
Structure (SMILES) = CC(C)C[C@H](NC(=O)[C@H](CC(=O)O)NC(=O)CNC(=O)[C@@H](N)CCCNC(=N)N)C(=O)N[C@@H](C)C(=O)N[C@H](C(=O)N[C@@H](CC(C)C)C(=O)N[C@@H](CCCNC(=N)N)C(=O)N[C@@H](CCC(N)=O)C(=O)N[C@@H](CC(C)C)C(=O)N[C@@H](C)C(=O)N[C@@H](CCC(N)=O)C(=O)N[C@@H](CCC(=O)O)C(=O)N[C@@H](CC(=O)O)C(=O)NCC(=O)N[C@H](C(=O)N[C@H](C(=O)NCC(=O)N[C@H](C(=O)N[C@@H](CCCNC(=N)N)C(=O)NCCOCCOCCOCCOCCOCCOCCOCCOCCOCCOCCOCCOCCC(=O)N[C@@H](CS)C(N)=O)C(C)C)C(C)C)C(C)C)[C@@H](C)O; cell line = LNCaP prostate carcinoma; assay = cell binding, phage binding, measured: output/input phage; conditions = 10 min, 37 °C; how to read = baseline: control phage; quantity = selectivity ratio; value = 1.3 ± 0.71
Structure (SMILES) = O=C(C[Se]C(=O)c1ccccc1Nc1ccccc1)Nc1cccc(C(F)(F)F)c1; cell line = NCI60 colon subpanel; assay = NCI60 five-dose screen; quantity = CC50; value = 18.2 µM
Structure (SMILES) = CC[C@H](C)[C@H](NC(=O)[C@@H](NC(=O)[C@@H]1CCCN1C(=O)[C@@H](NC(=O)[C@@H](NC(=O)[C@H](Cc1c[nH]cn1)NC(=O)[C@@H]1CCCN1C(=O)[C@H](CC(C)C)NC(=O)[C@@H](NC(=O)[C@H](Cc1c[nH]cn1)NC(=O)[C@H](CCCCN)NC(=O)[C@H](C)NC(=O)[C@H](CO)NC(=O)CNC(=O)[C@H](CC(C)C)NC(=O)[C@@H](NC(=O)CNC(=O)[C@H](Cc1ccccc1)NC(=O)[C@H](CC(C)C)NC(=O)CNC(=O)[C@@H](N)Cc1ccc(O)cc1)C(C)C)C(C)C)C(C)C)C(C)C)C(C)C)C(=O)N[C@@H](C)C(=O)N[C@@H](CCC(=O)O)C(=O)N[C@@H](Cc1c[nH]cn1)C(=O)N[C@@H](CC(C)C)C(N)=O; cell line = HepG2; assay = MTT; conditions = 30 µg/mL, 24 h; quantity = viability; value = 96.4 ± 4.82%
Structure (SMILES) = CC1OC2OC3C4=C(OC3(C)C12O)C(=O)c1c(O)cccc1C4=O (centres unmarked); cell line = HL-60; assay = sulforhodamine B; conditions = 10 µg/mL, 48 h; how to read = negative means cell kill; quantity = growth percent; value = -36.7%
Structure (SMILES) = CSCC[C@H](N)C(=O)N[C@@H](C)C(=O)N[C@@H](Cc1c[nH]c2ccccc12)C(=O)N[C@@H](Cc1c[nH]cn1)C(=O)N[C@@H](CC(=O)O)C(=O)N[C@@H](CC(=O)O)C(=O)N[C@@H](CCC(=O)O)C(=O)N[C@@H](CCC(=O)O)C(=O)N[C@@H](Cc1ccccc1)C(=O)N[C@@H](C)C(=O)N[C@@H](CCCNC(=N)N)C(=O)N[C@@H](CCCNC(=N)N)C(=O)N[C@@H](CCCNC(=N)N)C(=O)N[C@@H](CCCNC(=N)N)C(=O)NCCCCCC(=O)NCCCCC(NC(=O)CCCCCNC(=O)[C@H](CCCNC(=N)N)NC(=O)[C@H](CCCNC(=N)N)NC(=O)[C@H](CCCNC(=N)N)NC(=O)[C@H](CCCNC(=N)N)NC(=O)[C@H](C)NC(=O)[C@H](Cc1ccccc1)NC(=O)[C@H](CCC(=O)O)NC(=O)[C@H](CCC(=O)O)NC(=O)[C@H](CC(=O)O)NC(=O)[C@H](CC(=O)O)NC(=O)[C@H](Cc1c[nH]cn1)NC(=O)[C@H](Cc1c[nH]c2ccccc12)NC(=O)[C@H](C)NC(=O)[C@@H](N)CCSC)C(=O)NCCCCC(NC(=O)C(CCCCNC(=O)CCCCCNC(=O)[C@H](CCCNC(=N)N)NC(=O)[C@H](CCCNC(=N)N)NC(=O)[C@H](CCCNC(=N)N)NC(=O)[C@H](CCCNC(=N)N)NC(=O)[C@H](C)NC(=O)[C@H](Cc1ccccc1)NC(=O)[C@H](CCC(=O)O)NC(=O)[C@H](CCC(=O)O)NC(=O)[C@H](CC(=O)O)NC(=O)[C@H](CC(=O)O)NC(=O)[C@H](Cc1c[nH]cn1)NC(=O)[C@H](Cc1c[nH]c2ccccc12)NC(=O)[C@H](C)NC(=O)[C@@H](N)CCSC)NC(=O)CCCCCNC(=O)[C@H](CCCNC(=N)N)NC(=O)[C@H](CCCNC(=N)N)NC(=O)[C@H](CCCNC(=N)N)NC(=O)[C@H](CCCNC(=N)N)NC(=O)[C@H](C)NC(=O)[C@H](Cc1ccccc1)NC(=O)[C@H](CCC(=O)O)NC(=O)[C@H](CCC(=O)O)NC(=O)[C@H](CC(=O)O)NC(=O)[C@H](CC(=O)O)NC(=O)[C@H](Cc1c[nH]cn1)NC(=O)[C@H](Cc1c[nH]c2ccccc12)NC(=O)[C@H](C)NC(=O)[C@@H](N)CCSC)C(N)=O (some centres unmarked); cell line = mouse bone marrow macrophages; assay = RT-qPCR, measured: Mapk11 (p38β); conditions = concentration not given, unit not given, together with: RANKL; how to read = baseline: RANKL alone; quantity = mRNA level; value = 1.25
Structure (SMILES) = CC(C)(C)C(=O)OCOP(=O)(OCOC(=O)C(C)(C)C)C1CCCN(O)C1=O (centres unmarked); cell line = UO-31; quantity = log GI50; value = -6.51 log M
Structure (SMILES) = CC1CCC2C(C)C(OC(=O)CCC(=O)N3CCC(Nc4ccc(S(=O)(=O)NC(=O)c5ccc(N6CCN(CC7=C(c8ccc(Cl)cc8)CC(C)(C)CC7)CC6)cc5Oc5cnc6[nH]ccc6c5)cc4[N+](=O)[O-])CC3)OC3OC4(C)CCC1C32OO4 (centres unmarked); cell line = THP-1; assay = annexin V/PI flow cytometry, measured: annexin V+/PI+; conditions = 0.8 µM, 24 h; quantity = late apoptotic cells; value = 15.6%
Structure (SMILES) = O=C(O)c1ccc(-c2nc(-c3ccccc3Cl)c3sccn23)cc1; cell line = HEL; assay = flow cytometry; conditions = 0.1 mM; quantity = CD235a-positive cells; value = 85.4%
